Experimental data of several laboratories.
Every numbered part comes from another study and shows a few of its results, in no order. “And” joins repeats or separate records; there may be more than shown. Changes are numbered by the printed parent chain.

Series 1 — read-out: enzyme activity; action: inhibitor; concentration: 0.5 µM; reference: control
Target: G protein-coupled receptor kinase 6 (GRK6, Homo sapiens, UniProt P43250)
Chain of UniProt P43250 (whole entry, looked up): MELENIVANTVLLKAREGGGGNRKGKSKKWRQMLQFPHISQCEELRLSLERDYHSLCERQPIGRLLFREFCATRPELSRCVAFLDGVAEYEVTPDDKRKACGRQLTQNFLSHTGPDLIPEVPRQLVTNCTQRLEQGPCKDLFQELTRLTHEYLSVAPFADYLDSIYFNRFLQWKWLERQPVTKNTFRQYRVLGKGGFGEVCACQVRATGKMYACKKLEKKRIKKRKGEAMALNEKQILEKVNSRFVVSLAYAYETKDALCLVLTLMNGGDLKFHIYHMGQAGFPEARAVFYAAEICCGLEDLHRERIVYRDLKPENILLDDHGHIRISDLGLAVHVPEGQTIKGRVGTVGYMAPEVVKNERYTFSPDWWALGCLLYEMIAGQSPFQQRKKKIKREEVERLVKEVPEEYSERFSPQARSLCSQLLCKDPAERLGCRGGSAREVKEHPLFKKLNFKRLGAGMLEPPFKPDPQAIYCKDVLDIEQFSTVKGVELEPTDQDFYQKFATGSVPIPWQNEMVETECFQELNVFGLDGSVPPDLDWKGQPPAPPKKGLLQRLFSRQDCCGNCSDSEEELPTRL
`Cn1nc2c3c(cccc31)C(=O)c1ccccc1-2` gave a remaining activity of 89.2%.
`CN([C@@H](Cc1ccc(OS(=O)(=O)c2cccc3cnccc23)cc1)C(=O)N1CCN(c2ccccc2)CC1)S(=O)(=O)c1cccc2cnccc12` has a remaining activity of 102%.
For `CCOc1nc(NC(=O)Cc2cc(OC)ccc2OC)cc(N)c1C#N`, the remaining activity was 98.9%.
`CN(C)C[C@H]1CCn2c(c(C3=C(c4cn(C)c5ccccc45)C(=O)NC3=O)c3ccccc32)C1` has a remaining activity of 66.4%.
`O=C(Nc1cccc(Nc2nccc(Nc3cccc(C(F)(F)F)c3)n2)c1)C1CC1` has a remaining activity of 93.8%.
With `CCN(CC)CCNC(=O)c1c(C)[nH]c(/C=C2\C(=O)Nc3ccc(F)cc32)c1C` the remaining activity was 74.7%.
With `Cc1nc2cc3nc(-c4cccs4)cnc3cc2n1C` the remaining activity was 104%.

Series 2 — target: CCNE1, cyclin fold, Cln2 fusion (human); method: yeast growth competition, sequencing; medium: yeast; setting: strong parent motif; reference: not given; direction: higher = stronger binding
Starting sequence: BRCA2 docking peptide (human); PSIKRNLLNEFDR; partner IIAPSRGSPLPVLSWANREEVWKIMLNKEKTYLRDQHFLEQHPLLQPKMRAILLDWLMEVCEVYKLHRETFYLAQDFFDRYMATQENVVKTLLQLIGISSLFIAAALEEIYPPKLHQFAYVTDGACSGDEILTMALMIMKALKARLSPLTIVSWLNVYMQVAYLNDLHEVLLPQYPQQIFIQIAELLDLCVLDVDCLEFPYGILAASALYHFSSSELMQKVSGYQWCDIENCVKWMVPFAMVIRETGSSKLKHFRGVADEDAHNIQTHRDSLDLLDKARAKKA
`P1C` — result for “normalised enrichment score”: 1.93.
For `N9K`, “normalised enrichment score” read 2.08.
For `F11Y`, “normalised enrichment score” read 0.901.
For `R5S`, “normalised enrichment score” read 0.778.
`N9G` — result for “normalised enrichment score”: 1.34.
`S2V` — result for “normalised enrichment score”: 1.08.
Under “normalised enrichment score”, `L7D` is recorded as 0.134.
`L7T`: “normalised enrichment score” 0.592.

Series 3 — cell line: normal organoid sample E; method: CellTiter-Glo; species: human; medium: normal-adjacent epithelium; concentration: 1 µM; reference: DMSO
For `Cc1c(C(=O)O)cc(-c2ccc(C3CCNCC3)cc2)c2ccc(-c3ccc(C(F)(F)F)cc3)cc12`, the viability was 120% and 98.2%.
For `CO[C@@H](C)c1c(Nc2ccc([C@H](N(C)C(=O)C3CCS(=O)(=O)CC3)C(F)(F)F)cc2)cnc2cc(Cl)nn12`, the viability was 93.5% and 101%.
With `Cc1c(Oc2ccc(F)cc2)c(OC(C)C)nn1-c1ccc(C2CC2)cn1` the viability was 113% and 98.9%.

Series 4 — method: universal PBM; form: double-stranded DNA, one strand shown; medium: in vitro; concentration: 600 nM; direction: higher = stronger binding
Target: Sal-like protein 4, full length isoform A (SALL4, Homo sapiens, UniProt Q9UJQ4, residues 1-1053)
Chain of UniProt Q9UJQ4 (whole entry, looked up): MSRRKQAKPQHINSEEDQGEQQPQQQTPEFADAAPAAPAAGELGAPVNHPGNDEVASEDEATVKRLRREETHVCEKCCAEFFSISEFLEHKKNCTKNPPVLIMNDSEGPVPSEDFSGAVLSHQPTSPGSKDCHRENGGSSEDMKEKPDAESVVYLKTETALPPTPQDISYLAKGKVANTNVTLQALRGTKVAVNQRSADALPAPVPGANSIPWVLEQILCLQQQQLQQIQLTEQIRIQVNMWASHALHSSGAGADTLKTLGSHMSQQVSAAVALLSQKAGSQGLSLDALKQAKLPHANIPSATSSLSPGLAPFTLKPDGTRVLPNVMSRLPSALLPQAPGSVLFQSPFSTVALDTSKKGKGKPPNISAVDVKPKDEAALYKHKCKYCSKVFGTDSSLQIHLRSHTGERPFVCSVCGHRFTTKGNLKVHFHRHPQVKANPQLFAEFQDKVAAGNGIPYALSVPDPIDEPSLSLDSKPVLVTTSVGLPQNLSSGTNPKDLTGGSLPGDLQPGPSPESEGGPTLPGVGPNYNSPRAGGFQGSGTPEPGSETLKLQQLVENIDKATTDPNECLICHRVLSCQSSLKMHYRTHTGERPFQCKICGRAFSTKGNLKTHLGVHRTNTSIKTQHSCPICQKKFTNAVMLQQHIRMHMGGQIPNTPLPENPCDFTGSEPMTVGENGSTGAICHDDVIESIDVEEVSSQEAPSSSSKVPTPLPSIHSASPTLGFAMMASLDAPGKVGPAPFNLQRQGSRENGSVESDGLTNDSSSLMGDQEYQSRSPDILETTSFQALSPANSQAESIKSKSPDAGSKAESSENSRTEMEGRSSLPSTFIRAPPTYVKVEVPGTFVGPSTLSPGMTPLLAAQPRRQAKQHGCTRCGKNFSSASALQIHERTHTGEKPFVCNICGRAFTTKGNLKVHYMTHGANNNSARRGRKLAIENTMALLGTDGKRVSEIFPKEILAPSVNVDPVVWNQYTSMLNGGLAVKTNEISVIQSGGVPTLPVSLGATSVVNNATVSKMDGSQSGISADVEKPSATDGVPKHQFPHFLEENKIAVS
Setting: 8-mer, flanks averaged, mean of replicates
`CACGGTAA` gave an E-score of 0.0172.
The E-score of `GTGCGACA` is reported as -0.24.
For `AAGGCAGT`, the E-score was 0.00873.
`TACCAGCA` gave an E-score of -0.0472.
For `AGTTAGGG`, the E-score was -0.17.
For `GGTTGCGA`, the E-score was -0.0981.
For `TAGACCTA`, the E-score was 0.103.
With `AGGCTAGC` the E-score was -0.0768.
